Results pooled from the literature.
Parts stem from different laboratories: compare values within a part only.

Sample 1
Target: RNA binding protein fox-1 homolog 2, RRM domain, GST-SBP tag (RBFOX2, Homo sapiens, UniProt O43251-10, residues 100-194)
Method: RNA Bind-n-Seq
Molecule type: RNA
Sample: in vitro
Tested at: 365 nM
Notes: natural RNA segment, single round, ends assumed
Reference: no-protein control
Direction: higher = stronger binding
All sequences stand within: GGGAGUUCUACAGUCCGACGAUC … UGGAAUUCUCGGGUGCCAA
Construct (chain): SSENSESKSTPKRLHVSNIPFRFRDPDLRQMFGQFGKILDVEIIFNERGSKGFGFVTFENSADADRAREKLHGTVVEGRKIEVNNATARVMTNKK
Oligonucleotide	RBNS enrichment (R)
CUGGCUGCCUCCACUCCCACUUCCCUGACACUGCGGGGCUUGGCUGAGAGAGUGGCAUUGGCAGCAGGUGCUGCUACCCUCCCUGCUGUCCCCUCUUGCCCCAACCCCCA	0.653
AAAUUACCAAGUUUGGUUUUUAAUAAUUUCACAAUAUUAUGCGCCAAGAUCUAAUUUUAAAAAUGUACGAGGACUUUGUGCUGAAAAUACAGAGUAUUUUUUUAAAGUAA	0.525
GUUUUGUUUUGUAUUUCUUUGUUAUUUUAUUGGGAAGGUAAGCGGAAUGUGCUCAUAGACCAUCAGACGCUUGUCGAAGGCAGGUCCUAGUCAUGUAAUUGCACAGGACA	0.808
GGACCAAUGCAUCUCUUUAAAGGCAAAUAUUAUCCAGCAAGCAGUCUACCCUGUCCUUUGCAAUUGCUCUUCUCCACGUCUUUCCUGCUACAAGUGUUUUAGAUGUUACU	0.588
GACUUUUCUUUUGGGGCAAGUUCAGUGUAUUUAUGUGAAACUUUAUAAGAGAACUAAUUUUUCCAUUUGCAUAUUAAUAUGUUCCUCUAUACAUGUAAAGACACAGUGGC	0.406
AAGAUGUCAAAUACAAUGCAGCAUUUUCAUCUUGUUCUUUCAAAGUUAAUAGUCUAUUAUUUUAUGUCUAUUGAUUUUCAUUGUUAAUGUGAAAUGGUUAUUUAUACUUA	0.646
CUUCAGGCGGGUCUCAGGAGCUUCUAAAAAUCCGCAUGGCUCUCCUGAGAGUGGACAGAGGAGAGGAGAGGGUCAGAAAUGAACGCUCUUCUAUUUCUUGUCAUUACCAA	0.465
UAGUAUGGGCGAGCCACCCUCAGCUCUUUUAUUGGCCGGGGCUAUAAACCAUGGCUGGGCAUAACUAUUCCGAACUGUCCCCCCAUCAGGAUACAAGAUGCUGAGAGGGC	0.3
CCCUGGGCUCAAUUCACUUCCUUAUUUGACAAAGUGGAGGUGAGACUUGUAUUCUUAAAAUUGGAGGCUAGUUAUUUUGUCAAAUGCAUGUAAUGAACAGACCCGAAGGA	23.4
UGUGUGGUGAUUCUGGGCUCUCCACAACCAGCUCAAAGCAGCUAGCACCCGUGCUCACUGUUGUUGGACGGGCUGGUCCACAGCCUCAGACCCACGCUCUGCCGAGAUAC	0.292
UGCCUGCGGAAGGUAGGAUUAGAUCAUUAGCUCAGUGACCUCCUAGGGUUUCGAUGUGCUAUGUUCUCAUCCUACAGUUGGUUUGGUAAUGAUCUGCAAGUCCCGGAGAG	2.01
CCUUCUUUGAAGAGAAUCCCAAAAGUUAGUUCAUCUUAAAGUGCAAUAUUGUUUAAUCUUAAAACUGGGCAACUUUGGAAGAACUUUUAACAGAAGCCUCAAUGAUGAUC	0.254

Sample 2
Target: Histone acetyltransferase KAT6A, both winged helices, GST fusion (KAT6A, Homo sapiens, UniProt Q92794, residues 1-181)
Method: protein binding microarray
Molecule type: double-stranded DNA, one strand shown
Sample: in vitro
Tested at: not given
Notes: 8-mer, flanks averaged, mean of 2 arrays, mostly near background
Reference: not given
Direction: higher = stronger binding
Target sequence (chain): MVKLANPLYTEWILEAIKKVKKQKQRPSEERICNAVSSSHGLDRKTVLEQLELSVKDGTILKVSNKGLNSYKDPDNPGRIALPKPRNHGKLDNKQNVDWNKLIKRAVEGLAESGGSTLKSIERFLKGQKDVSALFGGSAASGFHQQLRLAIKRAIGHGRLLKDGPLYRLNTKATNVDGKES
Oligonucleotide	E-score
CCCTAAGA	-0.215
CCAACTGC	0.077
ACTCGTAT	-0.124
AGGTTACT	-0.144
ACGAGACA	-0.131
ATCTTAAA	-0.0238
CAGTGGCG	0.0859
CTCCCATC	-0.169
GTGACCTA	-0.0843
AAGGTAGC	0.045
AAGGTTAG	-0.155
TACCTTCA	-0.159
CGTTAACA	0.0967
TCGGGAGA	-0.00248
CCTTGCGA	-0.0596
GCGGTTTA	0.231
ACACCACG	-0.0216
GCGGGACC	0.267
GGCTAGCC	-0.0277
GCTCTTAC	0.0236
AATCTGCC	-0.0132
AGCACCTA	-0.104
GCATCCCA	-0.119
ATCGCTCA	0.0896
AGGCCAGC	-0.122

Sample 3
Target: RING finger protein unkempt homolog, zinc fingers 1-6, SBP tag (UNK, Homo sapiens, UniProt Q9C0B0, residues 30-357)
UniProt Q9C0B0, sequence (30-357, looked up): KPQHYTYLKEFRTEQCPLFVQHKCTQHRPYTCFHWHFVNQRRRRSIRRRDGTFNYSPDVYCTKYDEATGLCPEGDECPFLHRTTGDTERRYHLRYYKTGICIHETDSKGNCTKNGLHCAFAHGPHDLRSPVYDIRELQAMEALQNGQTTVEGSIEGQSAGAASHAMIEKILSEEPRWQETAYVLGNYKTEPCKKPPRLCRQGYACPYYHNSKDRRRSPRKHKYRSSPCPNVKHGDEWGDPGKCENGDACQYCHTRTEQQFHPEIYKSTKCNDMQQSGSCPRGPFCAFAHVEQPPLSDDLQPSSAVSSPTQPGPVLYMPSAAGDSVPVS
Method: RNA Bind-n-Seq
Molecule type: RNA
Sample: in vitro
Tested at: 100 nM
Notes: RNA with constant flanks, vertebrate orthologous sites, ends assumed
Reference: input RNA pool
Direction: higher = stronger binding
All sequences stand within: GGGAGUUCUACAGUCCGACGAUC … CAACAGAGGAUUGAGCAUCA
Oligonucleotide	bound/input enrichment [ratio]
UCCUGUGUUGGUGCAGAGUGCUCUGUACCAGUGCUCAUCAUCCUUCAUACCGACUGUACCUAGUUAUAGGAAUUUAAUAUUUUUUAAAGUUUUACAUUGCUGUAUAUUCAAAGAUUUGUU	0.969
GAGUGCUUAAGCCGCCAACAGUUAGAAGAUGCUAUUUAUUUGUGUCUGUAAGUUUGUACAUAGUAAUAAUGCCAACCUUGUUGCUGAAUUUUUUAUUUGUGGGGGAUGAGUUUGAAUUUU	1.48
CAUGUCCCUGUUACUGUGACAUUUAAAAUAUCCACAGUGCUCACUUUUUCCAAAUGAUUCUAGUAAUUACCUAGAAAUAUUUUUCUCUUACCUGUUAUUUAUCAAUUUUUCCCCAGUAUU	2.05
UUUUUUUUUUUUUGCACAUGACAGUGUUUGUACUGAUCUGCUGAGGAGGAGGAGGGGUACCAAACAGUGGGCCUGGAUUCCUAACCUCCAGUGUCUCACCACCCACCUGGCUUCUUUGUC	0.357
UUCAGGUACAACGGACUGGUUCACAGCAUUCCUUACACAGUUAUUUAUCAAGUACAAGUGUAGUUAAUUUUCAGGAUACAUCCAGGCAGUCAGCAUUAUCUUGCAGUCCAGUUGGAGAUG	0.978
UUUCGGUUUUGCACAUGACAGUGUUUGUUUUGAGGAUCUUCUGAGGAAGAAGGGGUGCUAUGGUGGUGGUGCCUGGGUUCCUGGCCUCCAGUGCCCCACCCCCUCACCACCACACCUGGC	0.332
CAUUAACACACACAAUGUCUCCAGGGGGGUAUUAAAUUUGAUUUCUUACAUAUAAAACAAACAAAACCAACCAACGAACCAUUUUUAAAGUAGAAGAGGGUUUUUAAUAGAAAAUGACAU	1.27
CUACAAUAAUGAAAAACCUACCAGGAAUUUUUUUAUUUUUCAUUUCCCCUUAGGCAUACCUAGUCUUUUUCCCCCGAGGCAGAUCAUUCUGAGUGUGCGAGUGUGUGUGCACAUGUUACA	0.926
ACGCAUUUUGCAACUUGGAUGUGGUCUGCACAGGAAGCUGCUGGCCCCUCCACAACAACACAGAAAAUGUUUGUCUUUUUUUUAAGAUGUUAAGACUGAAUUGAAUUUACUAAAAAUGUA	0.219
CUGUUGUUAAGCACUGUGUUCCAGACCGCGUCUGACUUUAGCGUAAGCUAGGAGAUUUCAUAGUUUUAUUUUAACGAAACCUGCUUGACGCAGAGCAGUGGGGAGAGCAGUGUCCUCUAC	0.645
UUUGCGUGGCAAUUAGAGUGGGUUCUCCCACUCAUACUCUCACACAGAAGAAAGCUCAAAUAAGUACUUUACACAUCUGAUUAUGCUGUUCUGUUUCUGUUUUCUAUUUUUACAUAUACA	0.666

Sample 4
Target: Ras GTPase-activating protein-binding protein 1, RRM domain (G3BP1, Homo sapiens, UniProt Q13283)
UniProt Q13283, sequence (whole entry, looked up): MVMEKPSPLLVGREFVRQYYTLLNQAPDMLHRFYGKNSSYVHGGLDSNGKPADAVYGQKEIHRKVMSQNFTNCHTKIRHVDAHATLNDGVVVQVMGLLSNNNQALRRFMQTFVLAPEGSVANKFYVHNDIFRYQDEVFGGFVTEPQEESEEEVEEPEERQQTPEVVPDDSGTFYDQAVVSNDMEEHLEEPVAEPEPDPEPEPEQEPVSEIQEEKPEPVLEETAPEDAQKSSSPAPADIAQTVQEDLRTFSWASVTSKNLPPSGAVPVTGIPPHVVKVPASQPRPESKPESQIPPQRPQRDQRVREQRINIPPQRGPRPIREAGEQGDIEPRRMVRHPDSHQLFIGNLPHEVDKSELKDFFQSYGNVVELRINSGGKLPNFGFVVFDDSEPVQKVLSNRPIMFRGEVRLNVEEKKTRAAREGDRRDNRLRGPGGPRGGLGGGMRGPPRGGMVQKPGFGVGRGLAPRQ
Method: RNA Bind-n-Seq
Molecule type: RNA
Sample: in vitro
Tested at: 1 µM
Notes: whole 134-nt RNA, ends assumed
Together with: 150 mM KCl
Reference: input library
Direction: higher = stronger binding
All sequences stand within: GGGAGUUCUACAGUCCGACGAUC … UGGAAUUCUCGGGUGUCAAGG
Oligonucleotide	log2 enrichment
AGUCCUGUGCUACACAUCGUAUGUACCGAAUCGGGAGGGAAAAAAAGGGUUUUUGGGAAAGUAUUAUGUUACGCCGUUCGGAUCUGCACU	0.269
GCAGGAAGUAAAAACAAAUGGAAAUGCUUCGGAUAGUGGCAGGGGUGGGGGUUGCUAAGGAAAGGGUGGGAUGGGAGUGGGUAUAGAGUU	0.77
UCCUGUGCUACACAUCGUAUGUACCGAAUCGGGGAAAAAGGAAAAAGGGGAAAAAGGGGAAAGUAUUAUGUUACGCCGUUCGGAUCUGCA	0.047
GCAGGAAGUAAAAACAAAUGGAAAUGCUUCGGAUAGUGGUAGGGGUGGGGGUUGCUAAGGAAAGGGUGGGAUGGGAGUGGGUAAAGAGUU	1.31
UGGGAGGUGGAUUUUGUUUAUUUUUUUAGCUCAUUUCCAGGGGUGGGAAUUUUUUUAUAAUAUGUGUCAUGAAUAAAGUUGUUUUUGAAA	1.41
UCCUCAAGUCCUGUGCUACACAUCGUAUGUACCGAAUCGGUUUGGAGGAGGAAAGUAUUAUGUUACGCCGUUCGGAUCUGCACUUCCAGC	-0.249
UUUGCAGAGCAGUCUCUGAUGAAGAAUGCCAUAAAAACAUCGGAGGAGUCAUGGAUUGAACAGCAGAUGCUAGAAGACAAGAAACGGGCC	0.101
CUCAAGUCCUGUGCUACACAUCGUAUGUACCGAAUCGGGGCGGGGCGGCGGGGAAAGUAUUAUGUUACGCCGUUCGGAUCUGCACUUCCA	0.0844
CCUCAAGUCCUGUGCUACACAUCGUAUGUACCGAAUCGGAGGAAAAAGGUGGAAAGUAUUAUGUUACGCCGUUCGGAUCUGCACUUCCAG	-0.0474
CAAGUCCUGUGCUACACAUCGUAUGUACCGAAUCGGGGAAAGGGAAAGGAAAGGGGAAAGUAUUAUGUUACGCCGUUCGGAUCUGCACUU	0.259
UGGCCCUGGUGGCAUGCGGGGAGGAAGAGGUGGCCUCAUGGAUCCUGGUGGUCCCGGUGGAAUGUUCAGAGGUGGCCGUGGUGGAGACAG	1.13
GUCCUGUGCUACACAUCGUAUGUACCGAAUCGGGGAGGGGUUUUUGGGGAAAAAGGGGAAAGUAUUAUGUUACGCCGUUCGGAUCUGCAC	0.811
GCAGGAAGUAAAAACAAAUCGAAAUGCUUCGGAUAGUGGCAGGGGUGGGGGUUGCUAAGGAAAGGGUGGGAUGGGAGUGGGUAAAGAGUU	1.27
UCAAGUCCUGUGCUACACAUCGUAUGUACCGAAUCGGUGGAAAGGAAAAAAAGGAAAGUAUUAUGUUACGCCGUUCGGAUCUGCACUUCC	-0.102
